{"data": "Experimental data from different studies", "note": "Numbered parts are unrelated; each lists some results of a single study."}
{"data": "Series 1", "target": "Sal-like protein 4, full length isoform A (SALL4, Homo sapiens, UniProt Q9UJQ4, residues 1-1053)", "method": "universal PBM", "molecule type": "double-stranded DNA, one strand shown", "medium": "in vitro", "concentration": "600 nM", "setting": "8-mer, flanks averaged, mean of replicates", "reading": "higher = stronger binding", "UniProt Q9UJQ4, sequence (whole entry, looked up)": "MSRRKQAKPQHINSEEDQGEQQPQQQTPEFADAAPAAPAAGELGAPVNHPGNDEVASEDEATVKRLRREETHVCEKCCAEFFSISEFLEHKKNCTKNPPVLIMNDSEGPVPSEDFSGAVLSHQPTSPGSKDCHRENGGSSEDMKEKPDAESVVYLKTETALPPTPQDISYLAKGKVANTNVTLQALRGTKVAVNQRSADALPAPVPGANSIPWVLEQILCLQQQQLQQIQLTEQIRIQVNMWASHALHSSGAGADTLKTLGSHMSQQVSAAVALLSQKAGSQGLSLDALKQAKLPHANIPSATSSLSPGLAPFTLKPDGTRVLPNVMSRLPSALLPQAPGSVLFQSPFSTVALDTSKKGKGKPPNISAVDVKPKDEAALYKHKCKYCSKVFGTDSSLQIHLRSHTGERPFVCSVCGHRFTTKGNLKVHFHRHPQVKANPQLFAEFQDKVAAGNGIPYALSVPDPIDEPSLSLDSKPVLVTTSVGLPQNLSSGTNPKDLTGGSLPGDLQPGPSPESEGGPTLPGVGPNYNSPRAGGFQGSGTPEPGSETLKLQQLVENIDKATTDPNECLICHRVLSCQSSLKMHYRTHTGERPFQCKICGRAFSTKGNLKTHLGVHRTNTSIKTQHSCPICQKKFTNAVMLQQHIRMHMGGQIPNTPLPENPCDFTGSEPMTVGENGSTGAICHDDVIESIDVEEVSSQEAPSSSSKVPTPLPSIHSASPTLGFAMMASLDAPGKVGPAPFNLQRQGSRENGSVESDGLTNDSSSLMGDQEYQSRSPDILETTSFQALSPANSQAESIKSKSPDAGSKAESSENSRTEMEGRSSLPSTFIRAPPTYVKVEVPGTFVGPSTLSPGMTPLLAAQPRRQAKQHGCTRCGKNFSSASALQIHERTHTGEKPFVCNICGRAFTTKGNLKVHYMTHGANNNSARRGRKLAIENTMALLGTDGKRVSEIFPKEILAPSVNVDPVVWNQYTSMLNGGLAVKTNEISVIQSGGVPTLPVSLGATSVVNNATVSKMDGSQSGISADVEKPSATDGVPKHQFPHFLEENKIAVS"}
{"Sequence": "TCGGCTCA", "E-score": -0.217}
{"Sequence": "GACGGTAA", "E-score": -0.00391}
{"Sequence": "CATTAAGA", "E-score": 0.181}
{"Sequence": "TCTAACAA", "E-score": 0.219}
{"Sequence": "ACAAACGC", "E-score": -0.0201}
{"Sequence": "TCTAGGCA", "E-score": -0.0185}
{"Sequence": "ACAATACG", "E-score": 0.0325}
{"Sequence": "CAAGTCAG", "E-score": -0.213}
{"Sequence": "GGGTCGAA", "E-score": -0.188}
{"data": "Series 2", "target": "Interferon regulatory factor 7, full length, phosphomimetic (IRF7, Homo sapiens, UniProt Q92985, residues 1-503, S101K/S471D/S472D/S475D/S476D/S477D/S483D/S484D/S487D)", "method": "protein-binding microarray", "molecule type": "double-stranded DNA, one strand shown", "medium": "in vitro", "concentration": "250 nM", "setting": "60-bp whole probe", "with": "salmon DNA 0.4 mg/ml", "relative to": "random background probes", "reading": "higher = stronger binding", "constant ends, left off below": "GCCTAGCAC … GTCTTGATTCGCTTGACGCTGCTG", "Residues (chain)": "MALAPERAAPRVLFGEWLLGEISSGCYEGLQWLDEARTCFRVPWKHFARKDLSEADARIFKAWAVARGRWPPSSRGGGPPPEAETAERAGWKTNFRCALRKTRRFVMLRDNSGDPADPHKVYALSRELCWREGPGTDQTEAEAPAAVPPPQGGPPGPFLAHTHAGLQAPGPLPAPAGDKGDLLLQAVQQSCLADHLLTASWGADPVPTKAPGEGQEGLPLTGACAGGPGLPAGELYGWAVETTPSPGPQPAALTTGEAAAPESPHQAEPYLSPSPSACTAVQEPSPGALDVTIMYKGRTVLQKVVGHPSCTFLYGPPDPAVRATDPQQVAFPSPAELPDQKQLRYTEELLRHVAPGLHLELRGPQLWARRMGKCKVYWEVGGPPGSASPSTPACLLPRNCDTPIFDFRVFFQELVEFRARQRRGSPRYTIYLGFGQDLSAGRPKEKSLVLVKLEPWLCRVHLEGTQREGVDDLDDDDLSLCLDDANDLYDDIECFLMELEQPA"}
{"Sequence": "GCAACATTCACCATGGCTAGGTGCTAG", "log fluorescence": "0.154 z-score"}
{"Sequence": "GACGGACAGGGGTTTCGGGACGTGCTA", "log fluorescence": "1.11 z-score"}
{"Sequence": "TTAGATATCGGGCTTCGATTAGTGCTA", "log fluorescence": "0.0984 z-score"}
{"Sequence": "GACGGACTGAACTATCGGGACGTGCTA", "log fluorescence": "-0.63 z-score"}
{"Sequence": "ACCTATAGGTTGTTTCTAATAGTGCTA", "log fluorescence": "0.0857 z-score"}
{"Sequence": "TTAGGACTGGGTTTCGGGTAGTGCTAG", "log fluorescence": "3.47 z-score"}
{"Sequence": "AAGCAGTTACTCTAGAGGCCGTGCTAG", "log fluorescence": "-0.618 z-score"}
{"data": "Series 3", "target": "Histone acetyltransferase KAT6A, both winged helices, GST fusion (KAT6A, Homo sapiens, UniProt Q92794, residues 1-181)", "method": "protein binding microarray", "molecule type": "double-stranded DNA, one strand shown", "medium": "in vitro", "concentration": "not given", "setting": "8-mer, flanks averaged, mean of 2 arrays, mostly near background", "relative to": "not given", "reading": "higher = stronger binding", "Target sequence (chain)": "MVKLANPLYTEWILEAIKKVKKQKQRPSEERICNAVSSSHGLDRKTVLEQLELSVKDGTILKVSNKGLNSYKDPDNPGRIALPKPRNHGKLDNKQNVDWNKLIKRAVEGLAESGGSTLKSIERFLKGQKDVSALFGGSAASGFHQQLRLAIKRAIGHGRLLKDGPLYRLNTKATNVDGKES"}
{"Sequence": "CGTGTCTA", "E-score": 0.102}
{"Sequence": "ACCCATAC", "E-score": -0.236}
{"Sequence": "ACTCTCCT", "E-score": -0.215}
{"Sequence": "ACACTCGT", "E-score": -0.141}
{"Sequence": "CGGTTCTA", "E-score": 0.125}
{"Sequence": "TAAATTAA", "E-score": -0.18}
{"Sequence": "CTGAGCCA", "E-score": -0.046}
{"Sequence": "ATGTTGGG", "E-score": -0.0921}
{"Sequence": "CCACAGTA", "E-score": -0.0924}
{"data": "Single results of other studies"}
{"Molecule": "PhoQ, residues 284 288 289 292 302 303 SLANIV", "target": "PhoP, residues 12 14 15 18 19 TQAIL (Escherichia coli, UniProt P23836)", "test": "Sort-seq, item: YFP reporter", "test system": "E. coli", "conditions": "PhoQ-PhoP variant library, with: 10 µM Mg2+", "scale": "relative to: high Mg2+ state, higher = stronger signaling", "measurement": "fold induction", "result": 22.8}
{"note": "Some of these lines once more (series 1):"}
{"Sequence": "TCTAACAA", "E-score": 0.219}
{"Sequence": "GGGTCGAA", "E-score": -0.188}
{"Sequence": "GACGGTAA", "E-score": -0.00391}
